Experimental data gathered from unrelated publications.
Parts stem from different laboratories: compare values within a part only. “And” joins repeats or separate records; there may be more than shown.
UniProt P51957, sequence (whole entry, looked up): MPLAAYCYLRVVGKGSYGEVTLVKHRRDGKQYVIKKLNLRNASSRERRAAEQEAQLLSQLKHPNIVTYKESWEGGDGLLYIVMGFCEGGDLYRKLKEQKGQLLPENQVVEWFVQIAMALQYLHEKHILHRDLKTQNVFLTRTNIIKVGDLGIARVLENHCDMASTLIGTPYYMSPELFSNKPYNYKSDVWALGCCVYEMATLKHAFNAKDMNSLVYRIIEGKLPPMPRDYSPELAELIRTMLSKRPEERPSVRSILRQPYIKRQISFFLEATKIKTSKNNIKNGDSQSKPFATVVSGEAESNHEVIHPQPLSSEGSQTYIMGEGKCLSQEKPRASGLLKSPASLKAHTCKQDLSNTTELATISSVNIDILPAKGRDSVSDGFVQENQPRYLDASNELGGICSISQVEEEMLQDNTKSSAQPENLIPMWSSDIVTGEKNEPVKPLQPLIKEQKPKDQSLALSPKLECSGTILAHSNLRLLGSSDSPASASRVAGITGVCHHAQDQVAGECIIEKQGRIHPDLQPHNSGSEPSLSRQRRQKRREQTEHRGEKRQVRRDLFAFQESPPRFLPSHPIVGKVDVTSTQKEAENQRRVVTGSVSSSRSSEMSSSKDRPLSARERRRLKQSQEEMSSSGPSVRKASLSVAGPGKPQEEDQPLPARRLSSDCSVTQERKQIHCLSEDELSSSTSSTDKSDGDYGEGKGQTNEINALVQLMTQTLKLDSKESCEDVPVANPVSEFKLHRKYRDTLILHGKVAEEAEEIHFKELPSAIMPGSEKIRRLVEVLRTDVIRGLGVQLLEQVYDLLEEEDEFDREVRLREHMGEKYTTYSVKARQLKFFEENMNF
UniProt Q8NEV4, sequence (whole entry, looked up): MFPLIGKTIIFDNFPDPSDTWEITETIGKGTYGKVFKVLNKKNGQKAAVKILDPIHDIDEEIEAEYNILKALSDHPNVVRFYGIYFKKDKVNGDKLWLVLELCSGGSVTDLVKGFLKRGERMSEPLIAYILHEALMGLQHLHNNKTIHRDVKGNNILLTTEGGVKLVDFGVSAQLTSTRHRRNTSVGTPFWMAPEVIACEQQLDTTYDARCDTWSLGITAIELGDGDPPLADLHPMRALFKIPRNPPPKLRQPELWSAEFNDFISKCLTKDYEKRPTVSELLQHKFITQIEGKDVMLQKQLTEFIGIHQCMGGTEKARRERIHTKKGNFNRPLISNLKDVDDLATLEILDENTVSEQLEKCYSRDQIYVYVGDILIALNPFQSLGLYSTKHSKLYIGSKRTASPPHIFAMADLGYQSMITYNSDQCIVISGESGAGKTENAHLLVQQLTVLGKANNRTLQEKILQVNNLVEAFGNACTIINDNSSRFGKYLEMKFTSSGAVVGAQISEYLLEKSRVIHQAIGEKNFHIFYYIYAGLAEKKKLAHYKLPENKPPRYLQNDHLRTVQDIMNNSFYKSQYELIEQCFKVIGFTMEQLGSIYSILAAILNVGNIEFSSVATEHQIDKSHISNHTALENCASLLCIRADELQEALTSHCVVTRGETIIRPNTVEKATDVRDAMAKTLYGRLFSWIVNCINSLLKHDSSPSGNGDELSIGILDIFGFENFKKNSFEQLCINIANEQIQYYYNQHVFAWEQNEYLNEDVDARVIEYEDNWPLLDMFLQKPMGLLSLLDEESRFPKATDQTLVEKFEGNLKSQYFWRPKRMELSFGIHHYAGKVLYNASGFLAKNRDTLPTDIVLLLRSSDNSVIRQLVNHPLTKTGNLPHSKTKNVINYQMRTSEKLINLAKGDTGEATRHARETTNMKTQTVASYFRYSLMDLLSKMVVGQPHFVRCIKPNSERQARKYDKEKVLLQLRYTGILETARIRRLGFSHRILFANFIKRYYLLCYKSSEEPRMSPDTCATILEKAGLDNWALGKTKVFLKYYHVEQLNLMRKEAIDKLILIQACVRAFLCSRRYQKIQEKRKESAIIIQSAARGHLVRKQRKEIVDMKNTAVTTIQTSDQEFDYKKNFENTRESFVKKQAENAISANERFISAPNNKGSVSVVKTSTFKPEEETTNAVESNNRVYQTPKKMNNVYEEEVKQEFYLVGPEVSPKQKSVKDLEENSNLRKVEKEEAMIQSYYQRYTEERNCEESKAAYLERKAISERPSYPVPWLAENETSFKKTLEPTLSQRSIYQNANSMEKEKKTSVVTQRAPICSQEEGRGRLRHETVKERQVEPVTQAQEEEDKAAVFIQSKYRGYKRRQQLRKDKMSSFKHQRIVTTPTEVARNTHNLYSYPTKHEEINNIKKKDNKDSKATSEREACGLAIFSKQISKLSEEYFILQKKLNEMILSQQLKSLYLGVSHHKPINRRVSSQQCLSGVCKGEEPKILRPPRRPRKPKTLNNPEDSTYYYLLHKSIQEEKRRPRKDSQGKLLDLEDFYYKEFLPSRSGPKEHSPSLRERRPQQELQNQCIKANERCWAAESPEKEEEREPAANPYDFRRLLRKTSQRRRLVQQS

Series 1 — technique: competition with immobilised ligand; concentration: 1 µM; quantity: remaining binding
SMILES: C[C@H](NC(=O)c1cnc2n1[C@](C)(Cc1ccc(C#N)cc1)C(=O)N2c1cc(Cl)c(F)c(Cl)c1)C(=O)NC1(c2ccccn2)CC1
Serine/threonine-protein kinase PAK 1 (PAK1, Homo sapiens, UniProt Q13153); cell-free assay: 95%
Activin receptor type-2A (ACVR2A, Homo sapiens, UniProt P27037); cell-free assay: 92%
Receptor-interacting serine/threonine-protein kinase 4 (RIPK4, Homo sapiens, UniProt P57078); cell-free assay: 100%
Serine/threonine-protein kinase Sgk2 (SGK2, Homo sapiens, UniProt Q9HBY8); cell-free assay: 94%
Proto-oncogene tyrosine-protein kinase receptor Ret (RET, Homo sapiens, UniProt P07949, M918T); cell-free assay: 100%
Tyrosine-protein kinase ABL2 (ABL2, Homo sapiens, UniProt P42684); cell-free assay: 83%
Calcium/calmodulin-dependent protein kinase type II subunit delta (CAMK2D, Homo sapiens, UniProt Q13557); cell-free assay: 100%
Myosin-IIIa (MYO3A, Homo sapiens, UniProt Q8NEV4); binding: 100%
Serine/threonine-protein kinase Nek4 (NEK4, Homo sapiens, UniProt P51957); cell-free assay: 100%
Receptor-type tyrosine-protein kinase FLT3 (FLT3, Homo sapiens, UniProt P36888, ITD); cell-free assay: 100%
Aurora kinase A (AURKA, Homo sapiens, UniProt O14965); cell-free assay: 100%
Casein kinase I isoform epsilon (CSNK1E, Homo sapiens, UniProt P49674); cell-free assay: 82%
Tyrosine-protein kinase ABL1, phosphorylated (ABL1, Homo sapiens, UniProt P00519, Y253F); cell-free assay: 100%
Serine/threonine-protein kinase 38-like (STK38L, Homo sapiens, UniProt Q9Y2H1); cell-free assay: 49%
Homeodomain-interacting protein kinase 3 (HIPK3, Homo sapiens, UniProt Q9H422); cell-free assay: 100%

Series 2 — observed: enzyme activity; action: inhibitor; concentration: 77 µM; baseline: untreated; quantity: remaining activity
Target: DNA polymerase theta, ATPase domain (POLQ, Homo sapiens, UniProt O75417)
UniProt O75417, sequence (whole entry, unmodified, looked up): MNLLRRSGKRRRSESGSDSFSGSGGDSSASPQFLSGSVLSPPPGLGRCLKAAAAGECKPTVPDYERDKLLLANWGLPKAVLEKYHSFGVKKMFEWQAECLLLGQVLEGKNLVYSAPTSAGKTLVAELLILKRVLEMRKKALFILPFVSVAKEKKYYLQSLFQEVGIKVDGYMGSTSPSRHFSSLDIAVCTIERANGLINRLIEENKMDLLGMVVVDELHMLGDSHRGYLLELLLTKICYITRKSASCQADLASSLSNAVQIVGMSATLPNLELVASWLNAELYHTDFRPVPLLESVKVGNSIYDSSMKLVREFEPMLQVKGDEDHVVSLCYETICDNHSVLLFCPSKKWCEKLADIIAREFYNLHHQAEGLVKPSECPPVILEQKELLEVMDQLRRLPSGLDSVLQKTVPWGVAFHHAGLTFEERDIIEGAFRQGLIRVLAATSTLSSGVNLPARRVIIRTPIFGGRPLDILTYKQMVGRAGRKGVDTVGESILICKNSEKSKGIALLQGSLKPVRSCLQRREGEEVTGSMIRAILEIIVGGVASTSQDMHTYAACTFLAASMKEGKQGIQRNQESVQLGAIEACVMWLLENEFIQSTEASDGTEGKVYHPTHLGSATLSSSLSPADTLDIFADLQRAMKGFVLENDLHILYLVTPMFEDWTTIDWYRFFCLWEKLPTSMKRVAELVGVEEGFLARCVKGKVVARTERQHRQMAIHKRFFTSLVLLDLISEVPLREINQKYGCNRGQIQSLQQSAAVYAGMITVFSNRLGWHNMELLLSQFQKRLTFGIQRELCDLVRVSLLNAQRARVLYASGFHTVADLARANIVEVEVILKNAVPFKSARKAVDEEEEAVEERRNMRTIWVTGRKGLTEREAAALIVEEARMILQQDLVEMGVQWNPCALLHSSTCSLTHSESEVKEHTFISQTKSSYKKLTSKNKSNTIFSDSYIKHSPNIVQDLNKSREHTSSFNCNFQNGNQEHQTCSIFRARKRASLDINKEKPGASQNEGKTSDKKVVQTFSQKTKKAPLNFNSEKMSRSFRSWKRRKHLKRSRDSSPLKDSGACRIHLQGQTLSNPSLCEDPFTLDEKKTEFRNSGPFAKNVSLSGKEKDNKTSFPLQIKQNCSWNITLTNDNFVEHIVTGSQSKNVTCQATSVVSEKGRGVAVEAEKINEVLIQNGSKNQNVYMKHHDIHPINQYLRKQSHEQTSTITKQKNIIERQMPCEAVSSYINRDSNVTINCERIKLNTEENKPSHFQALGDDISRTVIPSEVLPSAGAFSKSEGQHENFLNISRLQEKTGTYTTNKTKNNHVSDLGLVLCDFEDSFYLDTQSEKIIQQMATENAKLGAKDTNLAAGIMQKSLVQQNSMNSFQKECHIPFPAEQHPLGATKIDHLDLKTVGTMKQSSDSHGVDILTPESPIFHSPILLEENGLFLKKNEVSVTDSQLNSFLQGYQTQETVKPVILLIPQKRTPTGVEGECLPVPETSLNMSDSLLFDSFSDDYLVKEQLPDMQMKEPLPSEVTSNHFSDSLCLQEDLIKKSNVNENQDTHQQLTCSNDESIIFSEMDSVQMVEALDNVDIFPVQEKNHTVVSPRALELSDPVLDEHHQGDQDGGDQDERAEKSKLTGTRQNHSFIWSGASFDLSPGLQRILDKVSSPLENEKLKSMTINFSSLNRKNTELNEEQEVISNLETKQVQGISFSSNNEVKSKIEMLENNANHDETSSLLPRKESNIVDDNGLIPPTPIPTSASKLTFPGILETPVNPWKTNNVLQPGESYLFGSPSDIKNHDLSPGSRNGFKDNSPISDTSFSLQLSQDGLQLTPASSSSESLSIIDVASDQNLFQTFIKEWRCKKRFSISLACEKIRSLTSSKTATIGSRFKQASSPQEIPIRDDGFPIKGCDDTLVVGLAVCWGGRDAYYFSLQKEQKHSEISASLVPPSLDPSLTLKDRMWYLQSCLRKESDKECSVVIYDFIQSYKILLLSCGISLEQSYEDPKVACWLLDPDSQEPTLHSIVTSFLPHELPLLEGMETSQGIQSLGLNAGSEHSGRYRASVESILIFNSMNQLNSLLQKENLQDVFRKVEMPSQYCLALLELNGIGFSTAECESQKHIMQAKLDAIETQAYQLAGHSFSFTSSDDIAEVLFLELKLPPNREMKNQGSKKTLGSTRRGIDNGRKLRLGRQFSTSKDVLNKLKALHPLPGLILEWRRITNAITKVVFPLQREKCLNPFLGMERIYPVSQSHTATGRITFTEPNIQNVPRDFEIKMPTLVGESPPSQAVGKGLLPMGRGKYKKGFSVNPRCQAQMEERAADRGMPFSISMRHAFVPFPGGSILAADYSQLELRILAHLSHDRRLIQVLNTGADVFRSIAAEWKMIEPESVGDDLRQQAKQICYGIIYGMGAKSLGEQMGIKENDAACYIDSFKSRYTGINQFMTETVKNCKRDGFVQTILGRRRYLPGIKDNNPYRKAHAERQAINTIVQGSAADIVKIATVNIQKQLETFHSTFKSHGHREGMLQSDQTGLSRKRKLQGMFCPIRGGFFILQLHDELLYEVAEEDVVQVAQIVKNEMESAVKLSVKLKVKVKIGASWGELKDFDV
CC[C@H](c1ccc(O)cc1)[C@@H](CC)c1ccc(O)cc1: 103% and 92.7%
COc1ccc(OC)c(C(O)CNC(=O)CN)c1 (stereo not shown): 97.2%
CCn1cc(C(=O)O)c(=O)c2cnc(N3CCCC3)nc21: 101%
OCC(O)CN1CCN(c2ccccc2)CC1 (stereo not shown): 100%

Series 3 — technique: competitive binding panel; concentration: 1 µM; baseline: vehicle; quantity: remaining binding
SMILES: Cc1ccc(NC(=O)c2ccnc(C(F)(F)F)c2)cc1-c1cc(OCCO)nc(N2CCOCC2)c1
Serine/threonine-protein kinase PAK 3 (PAK3, Homo sapiens, UniProt O75914): 26%
Calcium/calmodulin-dependent protein kinase type II subunit beta (CAMK2B, Homo sapiens, UniProt Q13554): 95%
Rho-associated protein kinase 1 (ROCK1, Homo sapiens, UniProt Q13464): 89%
Dual specificity protein kinase CLK1 (CLK1, Homo sapiens, UniProt P49759): 92%
Death-associated protein kinase 2 (DAPK2, Homo sapiens, UniProt Q9UIK4): 100%
Tyrosine-protein kinase receptor UFO (AXL, Homo sapiens, UniProt P30530): 90%
Serine/threonine-protein kinase D1 (PRKD1, Homo sapiens, UniProt Q15139): 100%
Protein kinase C delta type (PRKCD, Homo sapiens, UniProt Q05655): 100%

Series 4 — host: mouse; matrix: microsomes or S9; concentration: 2 µM; time: 0.5 h; quantity: remaining compound
CCCc1cc(O)nc(N2CCN(c3ccc(Cl)cc3)CC2)n1: 6.64%
Cc1cc2oc(-c3ccsc3)c(CC(=O)O)c2c(=O)[nH]1: > 99.9%
COC(=O)[C@@H]1CCCN1C(=O)c1ccc(OC(c2ccc(Cl)cc2)c2ccc(Cl)cc2Cl)c(F)c1F (stereo partly shown): 46.1%
CC(C)/N=C1\ON(C(C)C)C(C)(C)N1c1ccccc1: 1.6%
Clc1ccccc1C1(c2ccnc(C3CCCC3)n2)CCNCC1: 1.44%
CCC(C)(C)Nc1[nH]c2c(Cl)cc(C)cc2c(=O)c1C(C)=O: 0.659%
CC1(C)Oc2ccncc2C(N(Cc2ncc[nH]2)c2ccc(Cl)cc2Cl)C1O (stereo not shown): 12.9%
CCOC(=O)Cc1cc(=O)c2c(=O)n(-c3ccccc3)[nH]c2[nH]1: 85.7%
Cc1ccc(CN2CCC=C(CCC(=O)O)C2=O)cc1: 99.9%
O=C(c1cc2ncccn2n1)N(c1ccccc1)c1ccccc1: 0.0627%
CCc1noc(C2(NC(=O)C3CCCC3)CCCCC2)n1: 72.9%
COc1ccc(Cc2nc(-c3ccc(=O)[nH]c3)no2)cc1Cl: 18%
CC1(C)Cc2nc(N3CCCC3)c(C#N)cc2CO1: 0.677%

For quick reference, copied from above (series 3):
Calcium/calmodulin-dependent protein kinase type II subunit beta (CAMK2B, Homo sapiens, UniProt Q13554): 95%
Rho-associated protein kinase 1 (ROCK1, Homo sapiens, UniProt Q13464): 89%
Dual specificity protein kinase CLK1 (CLK1, Homo sapiens, UniProt P49759): 92%
Death-associated protein kinase 2 (DAPK2, Homo sapiens, UniProt Q9UIK4): 100%
